Published values of several laboratories.
Compare with care: the assays were run in different laboratories.

Cn1cc(-c2ccc(-c3cncc(Cl)c3N3CCC4(CCNC4=O)CC3)cc2)cn1 — log2 fold change (COLO 205; gene expression, microarray, refers to: OAS2 mRNA; concentration not given, 2 h; relative to: untreated cells): 1.18
Cc1cccc(-c2[nH]c(CNc3ccccc3F)nc2-c2ccc3ncnn3c2)n1 — viability (MM1.S pomalidomide-resistant; XTT; 5 µM; relative to: untreated): 14%
CC1(C)OCCn2c1nc1c(N3CCOCC3)nc(-c3cnc(N)nc3)nc12 — IC50 (HD-MB03; cell growth; 168 h, DMSO): 339 nM
CCn1cc(-c2cc(Cn3ccnc3)cc3c2CCN([C@H](c2cc(OC)ccn2)C2CC2)C3=O)c(C(F)(F)F)n1 — EC50 (BICR6; cell growth; 120 h): 835 nM
O=C(/C=C/C=C/C=C/C1CCCCC1)NC1=C[C@@](O)(/C=C/C=C/C=C/C(=O)NC2=C(O)CCC2=O)[C@@H]2O[C@@H]2C1=O — GI50 (SU.86.86; cell growth, CellTiter-Glo; 78 h): > 30000 nM
CCn1cc(-c2cc(Cn3ccoc3=N)cc3c2CCN([C@@H](C)c2cc(OC)ccn2)C3=O)c(C(F)(F)F)n1 — EC50 (Calu-6; cell growth, inhibitor; 120 h): 1090 nM
Cc1nc(Nc2n[nH]c3c2CN(C(=O)N[C@H](CN(C)C)c2ccccc2)C3(C)C)c2sccc2n1 — IC50 (HD-MB03; cell growth; DMSO): 4.49 nM
COc1cnc2cccc(N3CCc4c(cc(Cn5ccnc5C)cc4-c4cn(C)nc4C(F)(F)F)C3=O)c2c1 — EC50 (SUIT-2; cell growth, inhibitor; 120 h): 5210 nM
COc1cc2nccc(Oc3ccc(NC(=O)C4(C(=O)Nc5ccc(F)cc5)CC4)cc3)c2cc1OC — IC50 (HD-MB03; 168 h): inactive

For quick reference, copied from above:
CCn1cc(-c2cc(Cn3ccoc3=N)cc3c2CCN([C@@H](C)c2cc(OC)ccn2)C3=O)c(C(F)(F)F)n1 — EC50 (Calu-6; cell growth, inhibitor; 120 h): 1090 nM
